Experimental data collected from several papers.
Lines come from different studies, so protocols differ. Several values in a cell are separate wells, animals, samples, runs or records. ± marks the error that the study gave.

CCN1CCN(C(=O)c2ccc(-n3nc(-c4cccnc4)c4c3-c3sc(NC(C)=O)nc3CC4)cc2)CC1 gave a body weight of 16 g and 20 g and 19.7 g (NSG mice; dose not given, day 5).
Under “subjects with TEAE”, CC(C)(C(=O)N1CCOc2c(C#N)cncc2C1)C(F)F is recorded as 0% (measured: vascular disorders; healthy humans, both sexes; oral, 10 mg single dose).
For CN(C(=O)n1cnc(-c2ccc[n+]([O-])c2)c1)[C@H]1CC[C@H](O)CC1, the tissue concentration was 14.4 ± 0.7 ng/g (rat, hippocampus; oral, 10 mg/kg daily for 5 days, 4 h).
For NC/C(=C\F)COc1cccc(Cn2c(=S)[nH]c(=O)c3[nH]cnc32)c1, the remaining compound was 80% (dog liver microsomes; 1 µM, 1 h).
The tumour uptake of CN(CCCN1CCN(C(=O)CN2CCN(CC(=O)[O-])CCN(CC(=O)[O-])CCN(CC(=O)[O-])CC2)CC1)c1ccc2nccc(C(=O)NCC(=O)N3CC(F)(F)C[C@H]3C#N)c2c1.[68Ga+3] is reported as 3.9 %IA/g (mouse, HT-1080.hFAP/HT-1080.wt xenograft, HT-1080.hFAP tumour; iv, 500 pmol, 1 h).
FC(F)(F)c1ccc(CNc2ccc(Cc3c[nH]c4ncc(Cl)cc34)cn2)cn1 — result for “treatment-related adverse events”: 0% (measured: Hypertension; patients with advanced solid tumours, non-TGCT cohort; oral, 1000 mg/day, grade 3 or higher).
OCc1nc2ccc(NCc3ccc(C(F)(F)F)cc3)cc2[nH]1 has a tissue/plasma ratio of 2.6 ± 0.3 (Balb/c mouse, male, lungs; intravenous, 1 mg/kg, 6 h; reference: tissue over plasma).
[NH2][Pt]([NH2])([Cl])[Cl] — result for “body weight loss”: 24.8% (C57BL/6J mice, kidney injury model; intraperitoneal, 20 mg/kg, 72 h; reference: control).
For O=C(Nc1cnccc1Cl)N1CCN(Cc2ccc3c(c2)OC(F)(F)O3)CC1, “postural dizziness incidence” read 0% (multiple ascending dose; young men; 25 mg, treatment-emergent adverse events).
Under “any adverse event”, Cc1ccc(Sc2ccccc2N2CCNCC2)c(C)c1 is recorded as 12.5% (elderly men; oral, 10 mg single).
With OB1NN=Cc2ccccc21 the peak area was 306000 a.u. and 301000 a.u. and 304000 a.u. (stability, UPLC-MS; diluted serum; 4 day, 37 °C; higher = more compound remaining).
Under “treatment-emergent adverse events”, O=C(Nc1nc2cccc(-c3ccc(CN4CCS(=O)(=O)CC4)cc3)n2n1)C1CC1 is recorded as 0% (measured: immune system disorders; human rheumatoid arthritis patients; oral, 75 mg once daily, 4 weeks, regardless of relatedness).
For CO[C@H]1CC[C@H](N2C(=O)CNc3ncc(-c4ccc(C(C)(C)O)nc4)nc32)CC1, the renal clearance was 1.21 mL/min (patients, urine; oral, 15 mg, day -1, geometric mean).
The bioavailability of Cc1cccc(CNC(=O)c2cn(CCNC(=O)c3ccccc3S)c3cc4c(cc3c2=O)OC(F)(F)O4)n1 is reported as 21.6 ± 8.4% (Sprague-Dawley rat, male, whole blood; intramuscular, 30 mg/kg of parent drug).
For NS(=O)(=O)OC[C@@H]1C[C@@H](n2ccc3c(N[C@H]4CCc5ccccc54)ncnc32)C[C@@H]1O, the AUC(0-24h) was 1340 ng·h/mL (LC-MS/MS, non-compartmental; human, plasma; intravenous, all dose levels, cycle 1 day 8, median, added: irinotecan/temozolomide).
For [18F]c1ccc(-c2ccc3c(c2)[nH]c2ccncc23)cn1, the SUV was 3.62 ± 1.07 (ex vivo biodistribution; B6SJL mouse, normal, spleen; intravenous, 30 min).
Under “discontinuations due to TEAEs”, C[C@@H](N)C1CCN(S(=O)(=O)c2cccc3cnccc23)CC1 is recorded as 0% (healthy volunteers; 25 mg, fasted).
Under “serum CREA level”, CCc1cc(C(=O)NC)c2nccc(N3CCc4c(cc(Cn5ccnc5)cc4-c4cn(C)nc4C(F)(F)F)C3=O)c2c1 is recorded as 47.1 ± 3.46 µmol/L (Sprague Dawley rats; oral, 50 mg/kg once daily, 7 days).

Excerpt of the above:
The tumour uptake of CN(CCCN1CCN(C(=O)CN2CCN(CC(=O)[O-])CCN(CC(=O)[O-])CCN(CC(=O)[O-])CC2)CC1)c1ccc2nccc(C(=O)NCC(=O)N3CC(F)(F)C[C@H]3C#N)c2c1.[68Ga+3] is reported as 3.9 %IA/g (mouse, HT-1080.hFAP/HT-1080.wt xenograft, HT-1080.hFAP tumour; iv, 500 pmol, 1 h).
